Measured values from different studies.
Parts stem from different laboratories: compare values within a part only.
UniProt P00519, sequence (whole entry, unmodified, looked up): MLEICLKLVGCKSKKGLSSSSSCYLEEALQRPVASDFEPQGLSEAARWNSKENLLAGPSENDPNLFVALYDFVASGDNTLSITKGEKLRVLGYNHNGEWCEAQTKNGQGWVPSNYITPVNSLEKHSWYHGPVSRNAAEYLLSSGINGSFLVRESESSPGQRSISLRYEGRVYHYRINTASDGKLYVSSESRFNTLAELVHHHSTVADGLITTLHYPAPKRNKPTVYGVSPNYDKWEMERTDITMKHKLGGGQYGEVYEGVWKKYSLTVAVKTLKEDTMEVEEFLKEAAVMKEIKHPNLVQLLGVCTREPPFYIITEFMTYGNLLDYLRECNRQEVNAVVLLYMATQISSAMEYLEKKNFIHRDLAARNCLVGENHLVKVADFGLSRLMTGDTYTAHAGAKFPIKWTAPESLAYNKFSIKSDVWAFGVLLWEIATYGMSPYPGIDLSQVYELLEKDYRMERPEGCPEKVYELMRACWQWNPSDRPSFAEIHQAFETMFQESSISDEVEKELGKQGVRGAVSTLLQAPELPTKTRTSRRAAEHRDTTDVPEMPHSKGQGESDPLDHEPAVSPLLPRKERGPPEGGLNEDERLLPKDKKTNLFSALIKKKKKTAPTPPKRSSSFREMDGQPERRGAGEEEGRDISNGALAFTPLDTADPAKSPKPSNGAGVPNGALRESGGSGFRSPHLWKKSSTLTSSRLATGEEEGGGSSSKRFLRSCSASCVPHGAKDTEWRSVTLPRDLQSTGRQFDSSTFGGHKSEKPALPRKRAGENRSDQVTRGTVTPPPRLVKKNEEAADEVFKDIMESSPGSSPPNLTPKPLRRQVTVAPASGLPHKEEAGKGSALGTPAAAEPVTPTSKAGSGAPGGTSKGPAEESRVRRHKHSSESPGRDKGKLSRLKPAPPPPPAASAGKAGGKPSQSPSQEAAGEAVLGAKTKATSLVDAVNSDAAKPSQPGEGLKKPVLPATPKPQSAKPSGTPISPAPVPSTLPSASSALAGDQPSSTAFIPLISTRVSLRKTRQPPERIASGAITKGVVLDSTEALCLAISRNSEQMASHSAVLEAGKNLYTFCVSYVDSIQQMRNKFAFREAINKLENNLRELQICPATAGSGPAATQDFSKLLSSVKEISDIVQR

Set 1 — organism: Plasmodium berghei; action: inhibitor; cells: Huh-7; strain: GFP-expressing sporozoites, liver stage; concentration: 10 µM; time: 24 h; reference: untreated control
`Nc1ccc(C(=O)NCC(=O)O)cc1` has an infection rate of 86.4%.
`O=C(O)c1ccccc1` has an infection rate of 84.7%.
`Clc1cccc(Cl)c1NC1=NCCN1` has an infection rate of 99.9%.
With `NS(=O)(=O)c1cc2c(cc1C(F)(F)F)NC(Cc1ccccc1)NS2(=O)=O` (stereo not drawn) the infection rate was 85.6%.
`CCCCC(=O)O[C@H]1CC[C@H]2[C@@H]3CCc4cc(O)ccc4[C@H]3CC[C@]12C` has an infection rate of 119%.

Set 2 — organism: Sarcocystis neurona; effect on: parasite growth; concentration: 10 µM; time: 96 h; notes: first screen
The inhibition of `NC[C@H]1CC[C@H](C(=O)Oc2ccc(CCC(=O)O)cc2)CC1` is reported as 7.5%.
The inhibition of `CC(=O)OCC(CCn1cnc2cnc(N)nc21)COC(C)=O` is reported as 6%.
With `CCOc1cc(CC(=O)N[C@@H](CC(C)C)c2ccccc2N2CCCCC2)ccc1C(=O)O` the inhibition was 35.1%.
The inhibition of `NC(=O)c1cnccn1` is reported as -25.9%.

Set 3 — action: agonist
Target: Beta-1 adrenergic receptor (ADRB1, Homo sapiens, UniProt P08588)
UniProt P08588, sequence (whole entry, looked up): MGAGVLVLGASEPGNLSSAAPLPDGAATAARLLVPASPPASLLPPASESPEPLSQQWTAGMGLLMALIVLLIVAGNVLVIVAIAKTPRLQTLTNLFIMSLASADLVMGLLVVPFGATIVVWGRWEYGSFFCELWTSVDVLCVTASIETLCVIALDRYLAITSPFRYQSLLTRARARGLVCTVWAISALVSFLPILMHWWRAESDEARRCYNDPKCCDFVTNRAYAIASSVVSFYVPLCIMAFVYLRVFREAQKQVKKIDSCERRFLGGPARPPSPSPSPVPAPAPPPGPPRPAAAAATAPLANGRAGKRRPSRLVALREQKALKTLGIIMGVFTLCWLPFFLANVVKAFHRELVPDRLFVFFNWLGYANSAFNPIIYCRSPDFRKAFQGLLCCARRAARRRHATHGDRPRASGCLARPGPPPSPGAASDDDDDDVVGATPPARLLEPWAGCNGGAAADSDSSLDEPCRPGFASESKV
The EC50 of `COc1ccc(CNCc2ccc(C)s2)cc1OCC(O)CN1CCCCC1` (stereo not drawn) is reported as at least 100 µM.
For `CCN(CC)c1ccc2c(c1)OC(=O)/C(=C/Nc1ccc(CC(=O)NNc3c4c(nc5ccccc35)CCCC4)cc1)C2=O`, the EC50 was at least 100 µM.
With `COc1ccc(CN2C(=O)COC[C@@H]2[C@H](O)c2ccc(NC(=O)Cc3ccccc3)cc2)cc1` the EC50 was at least 100 µM.
The EC50 of `O=C1COc2ccc(-c3ccoc3)nc2CN1` is reported as at least 100 µM.
`CN(c1ccccc1)c1cc(=O)c2ccnc(-c3ccncc3)c2o1` has an EC50 of at least 100 µM.

Other studies, line by line
With `CNC(=O)Nc1ccc2c(c1)CC[C@]21OC(=O)N(CC(=O)N(Cc2ccc(F)cc2)[C@@H](C)C(F)(F)F)C1=O` the remaining binding was 71% (Tyrosine-protein kinase ABL1 (ABL1, Homo sapiens, UniProt P00519, F317I); KINOMEscan; 1 µM, F317I mutant, nonphosphorylated; reference: control).

Some of these lines once more (set 1):
With `NS(=O)(=O)c1cc2c(cc1C(F)(F)F)NC(Cc1ccccc1)NS2(=O)=O` (stereo not drawn) the infection rate was 85.6%.
`CCCCC(=O)O[C@H]1CC[C@H]2[C@@H]3CCc4cc(O)ccc4[C@H]3CC[C@]12C` has an infection rate of 119%.
